# Published values gathered from unrelated publications.
# A part holds a random share of what one study measured. Substitutions count along the parent as printed.

# Study 1 — target: CCND2, cyclin fold, Cln2 fusion (human); technique: yeast growth competition, sequencing; matrix: yeast; notes: weak parent motif; reference: not given; reading: higher = stronger binding
# Starting sequence: PKN2 docking peptide (human); VSAVQKLDFSDTM
Variant,normalised enrichment score
T12N,0.604
T12Q,0.569
L7K,0.153
S10I,0.587
F9L,0.161
D8T,0.204
S2D,-0.0597
T12I,0.554
S2P,0.431
F9Y,0.264
D8M,0.653
M13L,0.546
D8A,0.301

# Study 2 — technique: protein-binding microarray; form: double-stranded DNA, one strand shown; matrix: in vitro; tested at: 250 nM; notes: 60-bp whole probe; added: salmon DNA 0.4 mg/ml; reference: random background probes; reading: higher = stronger binding; constant ends, left off below: GCCTAGCAC … GTCTTGATTCGCTTGACGCTGCTG
# Target: Interferon regulatory factor 7, full length, phosphomimetic (IRF7, Homo sapiens, UniProt Q92985, residues 1-503, S101K/S471D/S472D/S475D/S476D/S477D/S483D/S484D/S487D)
# Construct (chain): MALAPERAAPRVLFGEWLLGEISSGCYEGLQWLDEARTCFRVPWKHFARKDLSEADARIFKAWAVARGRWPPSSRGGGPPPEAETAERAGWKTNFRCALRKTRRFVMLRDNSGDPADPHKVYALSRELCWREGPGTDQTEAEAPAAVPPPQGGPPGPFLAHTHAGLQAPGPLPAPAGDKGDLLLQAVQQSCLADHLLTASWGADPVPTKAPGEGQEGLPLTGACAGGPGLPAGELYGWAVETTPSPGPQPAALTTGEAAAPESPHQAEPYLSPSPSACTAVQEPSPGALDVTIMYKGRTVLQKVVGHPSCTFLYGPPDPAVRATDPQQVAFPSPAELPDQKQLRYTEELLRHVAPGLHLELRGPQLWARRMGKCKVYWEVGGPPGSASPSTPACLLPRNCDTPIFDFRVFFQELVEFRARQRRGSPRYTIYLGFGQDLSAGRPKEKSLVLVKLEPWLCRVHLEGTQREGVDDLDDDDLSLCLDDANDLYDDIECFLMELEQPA
Sequence,log fluorescence [z-score]
TAAGGACTGGGGTATCGGTTAGTGCTA,0.19
GAGAAAATGATTTTTTTCATGTGCTAG,0.0589
TCATTTTCATTTTCTGAAACTGTGCTA,3.37
TCACATTTTTTTTTTCTACTGTGCTAG,1.25
TCATATATTTTAATCACACTGTGCTAG,0.785
TTAGATCTCGGTTTCGATTAGTGCTAG,9.01
TTAGATTCCAGTTTCAATTAGTGCTAG,3.77
GCCACTTTCCATTTCTGTTTGTGCTAG,2.92
GACGAACTGAGTCTCGAGCCGTGCTAG,-0.00277
GTCCCTGAATGAAAACATCATGTGCTA,1.81
TTAGGACTGGGATTGGGTTAGTGCTAG,0.117

# Study 3 — technique: RNA Bind-n-Seq; form: RNA; matrix: in vitro; tested at: not given; reference: input RNA pool; reading: higher = stronger binding
# Target: RING finger protein unkempt homolog, zinc fingers 1-6, GST-SBP tag (UNK, Homo sapiens, UniProt Q9C0B0, residues 30-357)
# Notes: RNA with constant flanks, human and mouse sites, ends assumed
# Constant ends, left off below: GGGAGUUCUACAGUCCGACGAUC … CAACAGAGGAUUGAGCAUCA
# Construct (chain): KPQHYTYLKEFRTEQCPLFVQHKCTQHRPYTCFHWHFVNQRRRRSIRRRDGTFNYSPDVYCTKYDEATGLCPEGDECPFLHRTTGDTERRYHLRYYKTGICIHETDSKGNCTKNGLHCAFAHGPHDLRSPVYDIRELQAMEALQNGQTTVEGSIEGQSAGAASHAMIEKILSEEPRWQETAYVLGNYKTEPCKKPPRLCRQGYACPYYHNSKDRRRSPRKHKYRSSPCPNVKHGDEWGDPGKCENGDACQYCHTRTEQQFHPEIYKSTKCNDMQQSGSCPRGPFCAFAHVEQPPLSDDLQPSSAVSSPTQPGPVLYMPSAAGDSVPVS
Sequence,bound/input enrichment [ratio]
GGCAGCAACCCCACGUCCGCCUCGGAUGACUCCAACGGGCUGGAGUGGGAGAACGACUUUGUCAGUGCCGAGAUGGACGACAACGGCAACUCUGAGUACUCCGGGUUUGUGAACCCUGUG,0.0565
GAAAGCAUCACUUCAGCUGGGAGAGAUGACCUAGAGAGCUUCCAGCUUGAGAUAAGUGGGUUUUUAAAAGAGAUGGCCUGUCCAUACUCGGUACUCGUCUCAGGAGACAUUAAAGAGCGC,0.335
GGCGGCGCCCGCAGCUCCUCACCGGUACACACGCUGCCACUCAACAACUACACACUGUCACUGCCAGCCUCACUGUCACACAGCCGAACAGGCGCUCACAUCAUUCAGCCAGACACUGCU,0.293
CGCCGCCGCCCGCACGCCCGCUGCCCGUCGCCCGGUUCAUCCAUGAGCUCAGAUUUCCCACAUUAUAACUUCAGGAUGCCUAAUAUUGGAUUCCAGAAUCUGCCUCUCAACAUCUAUAUC,0.16
CUCAACACGGUGAAGCAGAAGCUCUUCACCGAGGUGGAGGGGACCUGCACAGGGAAGUAUGGCUUUGUAAUUGCUGUCACCACCAUUGACAAUAUUGGUGCUGGUGUGAUCCAGCCAGGC,0.0766
GAAAAAGAGGAGGAAGUACAUGCUCGUUUACUUCAUUGUGUAAGCAAACAGAAAAUUUUACUUAGCCAGGCUAGAAGAACUCAGAAACAUUUGCAGAUGCUCCUGGCAAAGCAUGUUGUU,0.241
CUGGGUUUGCCAGCUGUUCCUGCGGUGACACUGUAUAAACACGAUGACCCUGCCUUGACUUUAGUUGCUGGUCUUACAUCAAAUAAGCCCACAGACAAACUCCGUGCCCUGCCUCUGUGG,0.0875

# Study 4 — technique: universal PBM; form: double-stranded DNA, one strand shown; matrix: in vitro; tested at: not given; reading: higher = stronger binding
# Target: Sal-like protein 4, full length isoform B (SALL4, Homo sapiens, UniProt Q9UJQ4-2, residues 1-616)
# Notes: 8-mer, flanks averaged, mean of replicates
# Target sequence (chain): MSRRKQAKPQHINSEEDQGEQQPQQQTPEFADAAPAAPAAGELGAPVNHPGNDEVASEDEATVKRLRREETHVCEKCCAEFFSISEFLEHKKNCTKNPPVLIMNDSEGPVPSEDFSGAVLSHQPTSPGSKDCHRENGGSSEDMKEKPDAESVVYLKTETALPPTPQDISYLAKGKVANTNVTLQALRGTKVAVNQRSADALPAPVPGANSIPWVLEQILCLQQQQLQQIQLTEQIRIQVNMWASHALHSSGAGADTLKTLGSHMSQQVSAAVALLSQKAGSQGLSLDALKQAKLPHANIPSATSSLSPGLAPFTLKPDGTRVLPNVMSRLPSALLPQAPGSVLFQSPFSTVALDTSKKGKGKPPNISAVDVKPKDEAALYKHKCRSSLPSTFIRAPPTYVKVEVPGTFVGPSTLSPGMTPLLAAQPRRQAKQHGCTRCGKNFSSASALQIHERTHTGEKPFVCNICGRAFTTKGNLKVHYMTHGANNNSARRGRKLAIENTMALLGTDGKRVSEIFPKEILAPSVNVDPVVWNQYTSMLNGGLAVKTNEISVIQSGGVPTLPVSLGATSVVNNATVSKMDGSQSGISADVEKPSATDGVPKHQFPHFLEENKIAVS
Sequence,E-score
TCTGATCA,0.00572
ACGGAGGG,-0.11
AGCCGGCG,-0.319
AAAGACTG,0.0059
CGAGAGAG,-0.102
AGGACACT,-0.0977
CTGTTCTC,-0.175
GGGGGGAA,-0.0392
AGCTTCAT,0.0215
ACGGGAGA,-0.0669
CTCAGTAC,-0.0944
AAGTTTAG,0.0966
ATCACAAG,0.108
AAGTGCAA,0.0751

# Study 5 — technique: protein binding microarray; form: double-stranded DNA, one strand shown; matrix: in vitro; tested at: not given; reference: not given; reading: higher = stronger binding
# Target: Histone acetyltransferase KAT6A, both winged helices, GST fusion (KAT6A, Homo sapiens, UniProt Q92794, residues 1-181)
# Notes: 8-mer, flanks averaged, mean of 2 arrays, mostly near background
# Construct (chain): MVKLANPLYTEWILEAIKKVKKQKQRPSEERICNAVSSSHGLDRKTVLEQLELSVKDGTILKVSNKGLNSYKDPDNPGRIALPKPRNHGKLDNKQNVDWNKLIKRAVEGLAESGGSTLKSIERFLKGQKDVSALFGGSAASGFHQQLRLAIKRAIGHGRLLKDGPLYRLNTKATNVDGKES
Sequence,E-score
GCGGGCCC,0.248
GTAACCAA,-0.0752
GACTAACA,0.0777
CCCTGATA,-0.294
TCGGCCGA,0.287
GTATGTCA,-0.0395
CTCAGGCA,-0.154
CCTGATAG,-0.2
ACATCATC,-0.11
ACACGTGG,-0.0917
AACCATAG,-0.00848
ACCGTCAC,0.114
ATTATCCG,0.208
CCTATTGC,-0.167
CTAGCGAA,-0.082
GGCGTACC,0.0876
AGAGTAGG,-0.25
CTGAGGAA,-0.0231

# Study 6 — technique: RNA Bind-n-Seq; form: RNA; matrix: in vitro; tested at: 200 nM; notes: whole 134-nt RNA, ends assumed; added: 150 mM LiCl; reference: input library; reading: higher = stronger binding; library: 7-deaza-guanosine replaces G
# Target: Fragile X messenger ribonucleoprotein 1, C-terminal low-complexity region (Fmr1, Mus musculus, UniProt P35922)
# Constant ends, left off below: GGGAGUUCUACAGUCCGACGAUC … UGGAAUUCUCGGGUGUCAAGG
Sequence,log2 enrichment
UAACUUUAGAGGAGGAUCUGAUGGAUAUGGCAGUGGAAGUGGAUUUGGGGAUGGCUAUAAUGGGUAUGGAGGAGGACCUGGAGGUGGCAA,0.426
GUCCUGUGCUACACAUCGUAUGUACCGAAUCGGCCCCCCGGCCCCCCGGGCCCCCCGGGAAAGUAUUAUGUUACGCCGUUCGGAUCUGCA,1.21
UGCCUGGCCCAGUGCUGGGUUUGCCUUGUUGACGAUGCGCUUGGAUUGUUAAGGACACCGAUGUUCAGAACCCGGGAAGAGUCAUCUUAA,-3.55
AAGUCCUGUGCUACACAUCGUAUGUACCGAAUCGGGGAAAGGGGUUUGGGGAGGGGAAAGUAUUAUGUUACGCCGUUCGGAUCUGCACUU,-0.718
AGUCCUGUGCUACACAUCGUAUGUACCGAAUCGGGUUUUUGGGAAAGGGUUUUUGGGAAAGUAUUAUGUUACGCCGUUCGGAUCUGCACU,-2.72
AAGUCCUGUGCUACACAUCGUAUGUACCGAAUCGGCCCCGGGCCCCGGGGCCCCGGAAAGUAUUAUGUUACGCCGUUCGGAUCUGCACUU,-1.04
AAGUCCUGUGCUACACAUCGUAUGUACCGAAUCGGGUGGGUUUGGGUUUUUUUGGGAAAGUAUUAUGUUACGCCGUUCGGAUCUGCACUU,-1.4

# Excerpt of the above (study 5):
Sequence,E-score
TCGGCCGA,0.287
GTATGTCA,-0.0395
CTCAGGCA,-0.154
CCTGATAG,-0.2
